Published values from different studies.
Protocols differ between the studies behind these lines. “And” joins repeats or separate records; there may be more than shown. ± marks the error that the study gave.

| SMILES | test | test system | conditions | plasma concentration |
| --- | --- | --- | --- | --- |
| C=CC(=O)N1CCCC(n2c(=O)c3ncccc3n(Cc3ccc(Oc4ccccc4)cc3)c2=O)C1 (centres unmarked) | – | BALB/c mouse, male, plasma | intraperitoneal, 200 mg/kg, 6 h | 135 ng/mL |
| O=C1C2CC3CC1CC(C(=O)N1CCN(c4ccc([N+](=O)[O-])c5ncccc45)CC1)(C3)C2 | – | ICR mouse, male | oral, 5 mg/kg, 0.5 h | 16.4 ng/mL |
| CC1(C)CC[C@@]2(CO)C(=C3C=C[C@@H]4[C@@]5(C)CC[C@H](O)[C@@](C)(CO)[C@@H]5CC[C@@]4(C)[C@]3(C)C[C@@H]2O)C1 | UHPLC-MS/MS | mouse, plasma | oral, 50 mg/kg of saikosaponin a, 10 h | 34.2 ng/mL |
| Cc1ncsc1-c1ccc(CNC(=O)[C@@H]2C[C@@H](O)CN2C(=O)[C@@H](NC(=O)COCC(C)(COCCOCCOCCNC(=O)C[C@@H]2N=C(c3ccc(Cl)cc3)c3c(sc(C)c3C)-n3c(C)nnc32)COCCOCCOCCNC(=O)C[C@@H]2N=C(c3ccc(Cl)cc3)c3c(sc(C)c3C)-n3c(C)nnc32)C(C)(C)C)cc1 | – | C57BL/6 mouse, male, plasma | intravenous, 5 mg/kg, 30 min | 6890 ng/mL |
| O=C1CCC(N2Cc3cc(C(=O)O)c(F)cc3C2=O)C(=O)N1 (centres unmarked) | – | CD-1 mouse, male | oral, 10 mg/kg parent drug, 0.17 h | 55.2 ± 16.6 ng/mL |
| C=CC(=O)N1CCC[C@@H](c2ccc(C(N)=O)c3[nH]ccc23)C1 | – | mouse, TMD8 tumour-bearing, plasma | 7.5 mg/kg twice daily, 8 h | 4.39 ng/mL |
| CC(C)n1ncc2c(C(=O)NC[C@@H](C)N)cc(C3CC3)nc21 | – | mouse BALB/c female, plasma | intraperitoneal, 30 mg/kg, 1 h | 1520 ng/mL and 1420 ng/mL and 1350 ng/mL and 1340 ng/mL |
| CCC(=O)N(C)c1ccc(Cl)c(Cl)c1 | LC-MS/MS | mouse C57BL/6 female, plasma | oral, 10 mg/kg, 0.5 h | 219 ng/mL and 215 ng/mL |
| Cc1nn(-c2nc3c(F)cc(F)cc3s2)c(O)c1C(c1ccc(C(F)(F)F)cc1)c1c(C)nn(-c2nc3c(F)cc(F)cc3s2)c1O | – | ICR mouse | oral, 50 mg/kg, 0.50 h | 94900 ng/mL and 93300 ng/mL and 55300 ng/mL |
| Cc1ccc(OCC(=O)N(Cc2cccs2)c2ccn[nH]2)cc1 | – | mouse, CD-1, male, plasma | oral, 30 mg/kg, 4 h | 7 nM |
| CC#CC(=O)N1CCC[C@H]1c1nc(-c2ccc(C(=O)Nc3ccccn3)cc2)c2c(N)nccn12 | – | mouse, TMD8 tumour-bearing, plasma | 15 mg/kg twice daily, 8 h | 15.3 ng/mL |
| O=S(=O)(N[C@H]1CCO[C@@H](C2c3ccc(F)cc3CCc3cc(F)ccc32)C1)c1ccc(OC(F)(F)F)cc1 | – | mouse | oral, 30 mg/kg, 2-8 h | ~4000 nM |
| Cc1cc(C(=O)N[C@@H](CC(=O)NC(C)(C)C)C(=O)NCCNC(=O)c2cccc(-c3cc[nH]n3)c2)no1 | – | mouse, plasma | oral, 1 mg/kg | < 2 ng/mL |
| [2H]C([2H])(N)C([2H])([2H])NC(=O)c1cc(C2CC2)nc2c1cnn2C(C)C | – | mouse BALB/c female, plasma | intraperitoneal, 50 mg/kg, 2 h | 2360 ng/mL and 2100 ng/mL and 2280 ng/mL and 1980 ng/mL |
